# Published values gathered from unrelated publications.
# Protocols differ between the studies behind these lines.
SMILES,target or system,assay,system,setting,measurement,value
CCN(CCO)CCCC(C)Nc1ccnc2cc(Cl)ccc12 (stereo not shown),,measured: Vomiting grade 2,newly diagnosed glioblastoma patients,"oral, 800 mg/dose, with radiotherapy and temozolomide",patients with adverse event,33%
CN1CC[C@@H](c2c(O)cc(O)c3c(=O)cc(-c4ccc(C(F)(F)F)cc4Cl)oc23)[C@@H]1CO,,measured: Hypotension,relapsed or refractory haematological malignancies,"oral, dose not given, all arms",patients with adverse event,10%
Nc1nc2cc(-c3ccc4ncc(C(=O)N5CCOCC5)n4c3)ccc2o1,,measured: Nausea,advanced solid tumour patients,dose not given,patients with adverse event,4%
CNC(=O)c1cc(Oc2ccc(NC(=O)Nc3ccc(Cl)c(C(F)(F)F)c3)c(F)c2)ccn1,human coronavirus OC43,virus-induced cell killing,MRC-5,screen,maximum inhibition,10.2%
C=CCNc1c(O)cc2c(O)c1C[C@@H](C)C[C@H](OC)[C@H](O)[C@@H](C)/C=C(\C)[C@H](OC(N)=O)[C@@H](OC)/C=C\C=C(/C)C(=O)N2,,,"unresectable or metastatic STS, GIST, other","intravenous, 225 mg/m^2",patients with arthralgia TEAE,33%
COc1c(OCCCN2CCOCC2)ccc2c1N=C(NC(=O)c1cnc(N)nc1)N1CCN=C21,,measured: Diarrhoea,patients with advanced malignancies,"intravenous, dose not given, any grade, all cohorts, together with: gemcitabine",patients with adverse event,42%
O=C1Nc2cc3[nH]nc(-c4ccncc4)c3cc2CN1Cc1ccccc1,,CTCAE v4.03,advanced solid tumour patients,"intravenous, 7.2 mg/kg",patients with dyspepsia,33%
CO[C@H]1C[C@@H]2CC[C@@H](C)[C@@](O)(O2)C(=O)C(=O)N2CCCC[C@H]2C(=O)O[C@H]([C@H](C)C[C@@H]2CC[C@@H](OC(=O)NCCOCCOCCOCCOCCOCCOCCOCCOCCC(=O)N3CCc4cc(Cn5nc(-c6ccc7oc(N)nc7c6)c6c(N)ncnc65)ccc4C3)[C@H](OC)C2)C[C@@H](O)[C@H](C)/C=C(\C)[C@@H](O)[C@@H](OC)C(=O)[C@H](C)C[C@H](C)/C=C/C=C/C=C/1C,,measured: treatment-emergent AEs,patients with advanced solid tumours,"intravenous, 1.6 mg/3 mg, any grade, weekly",patients with AE,0%
Cc1n[nH]c(C)c1Cc1sc2c(c1C(=O)N1C[C@H](O)CO1)c(=O)n(C)c(=O)n2CC(C)C,human coronavirus OC43,virus-induced cell killing,MRC-5,screen,maximum inhibition,9.36%
Cc1cc(OCCOCCC(F)(F)P(=O)(O)O)ccc1CCc1cnc2c(N)nc3cc(CCC(=O)O)ccc3c2c1,,measured: pyrexia,adults with advanced solid tumours,"dose not given, by treatment group, all grades",patients with non-serious AE,28.6%
N[C@@H]1c2ccccc2OC12CCN(c1cnc3c(N4CCCc5ncccc54)n[nH]c3n1)CC2,,,advanced solid tumour patients,"oral, 60 mg once daily",patients with any TEAE,100%
CC(=O)c1c(C)c2cnc(Nc3ccc(C4CCN(CCS(C)(=O)=O)CC4)cn3)nc2n(C2CCCC2)c1=O,,,HR+/HER2- advanced breast cancer patients,"oral, 300 mg",patients with any TRAE,100%
C[C@@H]1OC(=O)NN=C1c1ccc(-c2ccc(F)cc2)c(C(F)(F)F)c1,,,"patients, phase I trial","oral, dose not given, all arms, worst grade 1",patients with non-cardiac chest pain,20%

# Excerpt of the above:
SMILES,target or system,assay,system,setting,measurement,value
Cc1n[nH]c(C)c1Cc1sc2c(c1C(=O)N1C[C@H](O)CO1)c(=O)n(C)c(=O)n2CC(C)C,human coronavirus OC43,virus-induced cell killing,MRC-5,screen,maximum inhibition,9.36%
Cc1cc(OCCOCCC(F)(F)P(=O)(O)O)ccc1CCc1cnc2c(N)nc3cc(CCC(=O)O)ccc3c2c1,,measured: pyrexia,adults with advanced solid tumours,"dose not given, by treatment group, all grades",patients with non-serious AE,28.6%
